Assay results of several laboratories.
Numbered parts are unrelated; each lists some results of a single study. Several values in a cell are separate wells, animals, samples, runs or records.
Sequence of UniProt Q9BVS4 (whole entry, looked up): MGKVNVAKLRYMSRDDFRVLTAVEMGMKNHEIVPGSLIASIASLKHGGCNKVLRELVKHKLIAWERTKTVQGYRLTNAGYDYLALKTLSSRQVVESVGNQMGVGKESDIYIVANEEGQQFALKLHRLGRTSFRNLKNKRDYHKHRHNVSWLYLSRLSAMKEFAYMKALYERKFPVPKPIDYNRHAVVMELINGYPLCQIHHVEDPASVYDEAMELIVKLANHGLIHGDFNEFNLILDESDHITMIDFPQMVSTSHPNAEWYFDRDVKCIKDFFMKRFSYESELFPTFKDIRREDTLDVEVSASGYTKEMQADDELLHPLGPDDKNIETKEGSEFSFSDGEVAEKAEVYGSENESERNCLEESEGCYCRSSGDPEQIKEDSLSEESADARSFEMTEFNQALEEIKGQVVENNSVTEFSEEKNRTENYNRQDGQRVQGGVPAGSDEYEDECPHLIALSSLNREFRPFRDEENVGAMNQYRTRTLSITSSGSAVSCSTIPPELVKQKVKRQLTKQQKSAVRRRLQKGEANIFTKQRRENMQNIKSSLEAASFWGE
Sequence of UniProt Q13976 (whole entry, looked up): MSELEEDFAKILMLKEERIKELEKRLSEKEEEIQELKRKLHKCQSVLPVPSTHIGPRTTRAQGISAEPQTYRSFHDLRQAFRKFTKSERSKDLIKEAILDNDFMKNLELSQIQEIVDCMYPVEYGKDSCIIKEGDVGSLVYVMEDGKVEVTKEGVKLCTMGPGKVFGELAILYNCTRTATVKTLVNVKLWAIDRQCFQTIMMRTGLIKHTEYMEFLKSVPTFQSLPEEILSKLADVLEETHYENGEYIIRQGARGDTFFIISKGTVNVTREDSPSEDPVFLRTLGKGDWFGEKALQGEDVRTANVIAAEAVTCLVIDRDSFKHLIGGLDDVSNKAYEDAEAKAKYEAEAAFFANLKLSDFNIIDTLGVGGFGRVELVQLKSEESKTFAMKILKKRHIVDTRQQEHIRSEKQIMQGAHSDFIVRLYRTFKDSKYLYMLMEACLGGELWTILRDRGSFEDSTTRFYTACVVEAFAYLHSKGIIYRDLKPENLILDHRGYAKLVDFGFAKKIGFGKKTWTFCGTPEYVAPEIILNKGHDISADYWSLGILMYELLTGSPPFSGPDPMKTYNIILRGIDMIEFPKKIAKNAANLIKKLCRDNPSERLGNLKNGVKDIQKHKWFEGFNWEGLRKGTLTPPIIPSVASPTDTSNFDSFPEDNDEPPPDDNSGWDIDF
Sequence of UniProt O14757 (whole entry, looked up): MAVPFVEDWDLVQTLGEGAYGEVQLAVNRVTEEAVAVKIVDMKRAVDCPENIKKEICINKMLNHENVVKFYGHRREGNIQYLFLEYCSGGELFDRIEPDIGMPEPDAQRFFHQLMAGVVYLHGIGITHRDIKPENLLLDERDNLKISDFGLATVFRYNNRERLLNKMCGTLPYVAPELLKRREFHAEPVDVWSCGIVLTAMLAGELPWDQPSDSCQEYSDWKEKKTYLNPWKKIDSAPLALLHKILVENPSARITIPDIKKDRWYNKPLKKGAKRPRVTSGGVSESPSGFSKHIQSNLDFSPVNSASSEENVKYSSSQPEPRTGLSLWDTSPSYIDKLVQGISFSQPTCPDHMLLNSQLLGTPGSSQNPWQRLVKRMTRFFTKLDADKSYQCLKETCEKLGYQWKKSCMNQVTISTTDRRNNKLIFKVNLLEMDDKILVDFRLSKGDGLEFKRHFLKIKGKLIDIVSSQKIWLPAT
Sequence of UniProt P07948 (whole entry, looked up): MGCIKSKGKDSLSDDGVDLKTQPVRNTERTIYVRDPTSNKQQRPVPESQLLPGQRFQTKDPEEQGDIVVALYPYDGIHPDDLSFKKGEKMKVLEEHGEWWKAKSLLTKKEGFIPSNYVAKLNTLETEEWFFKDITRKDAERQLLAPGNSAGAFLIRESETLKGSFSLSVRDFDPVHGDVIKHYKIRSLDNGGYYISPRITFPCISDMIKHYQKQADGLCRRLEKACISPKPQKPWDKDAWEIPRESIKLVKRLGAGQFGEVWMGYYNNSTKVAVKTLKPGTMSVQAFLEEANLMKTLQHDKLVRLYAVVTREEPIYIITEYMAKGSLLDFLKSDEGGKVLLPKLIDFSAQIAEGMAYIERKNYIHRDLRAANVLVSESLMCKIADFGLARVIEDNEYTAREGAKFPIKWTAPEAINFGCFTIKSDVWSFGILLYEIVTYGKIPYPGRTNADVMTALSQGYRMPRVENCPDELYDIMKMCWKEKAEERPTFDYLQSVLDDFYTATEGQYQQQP
Sequence of UniProt P31152 (whole entry, looked up): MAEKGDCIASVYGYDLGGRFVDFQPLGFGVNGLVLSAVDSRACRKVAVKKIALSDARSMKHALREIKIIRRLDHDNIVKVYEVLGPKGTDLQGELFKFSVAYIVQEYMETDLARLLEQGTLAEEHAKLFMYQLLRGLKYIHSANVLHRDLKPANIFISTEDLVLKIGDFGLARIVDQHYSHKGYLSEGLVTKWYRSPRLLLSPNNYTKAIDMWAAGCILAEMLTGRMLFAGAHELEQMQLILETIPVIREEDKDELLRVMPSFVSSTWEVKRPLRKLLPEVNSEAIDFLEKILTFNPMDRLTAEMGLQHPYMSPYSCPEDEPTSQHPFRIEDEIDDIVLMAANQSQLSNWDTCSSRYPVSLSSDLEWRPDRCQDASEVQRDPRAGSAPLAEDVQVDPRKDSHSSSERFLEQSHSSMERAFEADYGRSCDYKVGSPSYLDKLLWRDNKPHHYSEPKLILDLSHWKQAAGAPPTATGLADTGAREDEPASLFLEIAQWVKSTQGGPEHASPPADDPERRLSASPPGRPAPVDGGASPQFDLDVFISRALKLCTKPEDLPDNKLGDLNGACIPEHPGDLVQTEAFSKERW
Sequence of UniProt Q9Y243 (whole entry, looked up): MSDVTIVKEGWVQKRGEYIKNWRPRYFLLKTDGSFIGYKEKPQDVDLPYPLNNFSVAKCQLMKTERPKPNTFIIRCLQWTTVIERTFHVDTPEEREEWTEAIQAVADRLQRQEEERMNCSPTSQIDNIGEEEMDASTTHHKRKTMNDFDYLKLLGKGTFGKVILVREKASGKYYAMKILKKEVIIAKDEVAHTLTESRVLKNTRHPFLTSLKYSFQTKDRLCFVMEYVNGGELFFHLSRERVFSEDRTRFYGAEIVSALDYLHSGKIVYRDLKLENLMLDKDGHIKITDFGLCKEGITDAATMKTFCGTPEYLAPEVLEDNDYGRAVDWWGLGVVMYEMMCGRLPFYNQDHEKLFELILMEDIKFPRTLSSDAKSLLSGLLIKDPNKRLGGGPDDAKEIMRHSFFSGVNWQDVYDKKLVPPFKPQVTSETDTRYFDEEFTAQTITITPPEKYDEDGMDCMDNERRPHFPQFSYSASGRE
Sequence of UniProt Q9BRS2 (whole entry, looked up): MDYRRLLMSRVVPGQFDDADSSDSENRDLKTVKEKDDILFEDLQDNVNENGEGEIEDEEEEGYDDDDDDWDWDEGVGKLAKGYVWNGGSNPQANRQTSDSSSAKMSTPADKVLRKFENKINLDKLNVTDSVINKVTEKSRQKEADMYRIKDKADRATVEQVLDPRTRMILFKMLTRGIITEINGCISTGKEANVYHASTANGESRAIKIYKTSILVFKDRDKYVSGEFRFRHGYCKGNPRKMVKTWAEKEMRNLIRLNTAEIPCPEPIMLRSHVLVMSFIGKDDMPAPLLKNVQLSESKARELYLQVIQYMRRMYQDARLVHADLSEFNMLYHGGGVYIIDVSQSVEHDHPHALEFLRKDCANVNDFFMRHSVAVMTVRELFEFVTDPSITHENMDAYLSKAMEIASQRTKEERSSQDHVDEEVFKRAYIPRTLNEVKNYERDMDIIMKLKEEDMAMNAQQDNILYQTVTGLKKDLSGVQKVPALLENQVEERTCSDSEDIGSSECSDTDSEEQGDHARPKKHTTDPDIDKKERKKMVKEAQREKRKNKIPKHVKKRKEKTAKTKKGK
Sequence of UniProt P41743 (whole entry, looked up): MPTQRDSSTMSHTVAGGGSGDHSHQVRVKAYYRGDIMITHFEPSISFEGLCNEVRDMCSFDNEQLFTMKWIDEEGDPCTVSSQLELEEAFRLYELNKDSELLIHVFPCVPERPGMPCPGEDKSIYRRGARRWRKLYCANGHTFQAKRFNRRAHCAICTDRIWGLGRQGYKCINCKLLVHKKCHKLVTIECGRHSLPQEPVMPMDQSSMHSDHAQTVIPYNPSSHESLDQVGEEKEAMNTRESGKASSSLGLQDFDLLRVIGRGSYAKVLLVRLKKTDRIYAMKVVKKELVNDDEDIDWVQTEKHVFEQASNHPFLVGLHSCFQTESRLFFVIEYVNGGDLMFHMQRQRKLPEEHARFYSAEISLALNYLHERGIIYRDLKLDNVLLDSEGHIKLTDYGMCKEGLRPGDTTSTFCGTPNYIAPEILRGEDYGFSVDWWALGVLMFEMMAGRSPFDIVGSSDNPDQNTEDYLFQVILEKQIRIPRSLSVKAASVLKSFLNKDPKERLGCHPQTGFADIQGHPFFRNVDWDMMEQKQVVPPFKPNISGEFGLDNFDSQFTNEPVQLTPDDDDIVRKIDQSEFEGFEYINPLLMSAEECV
Sequence of UniProt Q15208 (whole entry, looked up): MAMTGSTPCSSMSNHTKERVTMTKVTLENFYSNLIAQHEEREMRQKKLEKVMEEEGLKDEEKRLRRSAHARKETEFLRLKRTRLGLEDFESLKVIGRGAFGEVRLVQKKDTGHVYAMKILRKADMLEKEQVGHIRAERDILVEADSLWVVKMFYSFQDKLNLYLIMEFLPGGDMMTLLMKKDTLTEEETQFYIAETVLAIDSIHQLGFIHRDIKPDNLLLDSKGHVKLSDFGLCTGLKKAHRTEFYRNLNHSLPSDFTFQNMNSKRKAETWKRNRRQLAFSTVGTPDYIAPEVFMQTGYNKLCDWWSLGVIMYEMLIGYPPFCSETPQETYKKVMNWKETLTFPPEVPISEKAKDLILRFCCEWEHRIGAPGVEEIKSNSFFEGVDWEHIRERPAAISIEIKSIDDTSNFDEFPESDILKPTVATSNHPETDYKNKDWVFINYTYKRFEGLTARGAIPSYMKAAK

Sample 1
Compound: O=C1NC(=O)/C(=C/c2ccc3nccnc3c2)S1
Read-out: enzyme activity
Action: inhibitor
Concentration: 0.5 µM
Baseline: control
Endpoint: remaining activity
target = RAC-gamma serine/threonine-protein kinase (AKT3, Homo sapiens, UniProt Q9Y243); result = 104%
target = Serine/threonine-protein kinase Chk1 (CHEK1, Homo sapiens, UniProt O14757); result = 99.4%
target = Protein kinase C delta type (PRKCD, Homo sapiens, UniProt Q05655); result = 94.4%
target = Serine/threonine-protein kinase 38 (STK38, Homo sapiens, UniProt Q15208); result = 99.6%
target = Tyrosine-protein kinase Lyn (LYN, Homo sapiens, UniProt P07948); result = 99.6%
target = Serine/threonine-protein kinase Nek4 (NEK4, Homo sapiens, UniProt P51957); result = 93.1%
target = Mitogen-activated protein kinase 12 (MAPK12, Homo sapiens, UniProt P53778); result = 96.6%
target = Casein kinase II subunit alpha (CSNK2A1, Homo sapiens, UniProt P68400); result = 3.08%
target = Serine/threonine-protein kinase WNK2 (WNK2, Homo sapiens, UniProt Q9Y3S1); result = 115%
target = Interleukin-1 receptor-associated kinase 4 (IRAK4, Homo sapiens, UniProt Q9NWZ3); result = 99.9%
target = Tyrosine-protein kinase BTK (BTK, Homo sapiens, UniProt Q06187); result = 104%
target = Mitogen-activated protein kinase kinase kinase 10 (MAP3K10, Homo sapiens, UniProt Q02779); result = 94.2%
target = Protein kinase C iota type (PRKCI, Homo sapiens, UniProt P41743); result = 98.6%
target = Cyclin-dependent kinase 9, with cyclin T1 (CDK9, Homo sapiens, UniProt P50750); result = 87.7%
target = Serine/threonine-protein kinase PLK2 (PLK2, Homo sapiens, UniProt Q9NYY3); result = 95.7%

Sample 2
Cell line: mouse MPNST tumor cells
Method: high-content nuclear imaging
Item: cell number
Concentration: 10 µM
Time: 12 h
Setting: mean of 2 replicates
Baseline: plate mean
Reading: higher = more cells
Endpoint: nuclei count
Compound = Cc1cc(O)c(C(=O)N[C@@H](C(=O)N[C@@H]2C(=O)N3C(C(=O)O)=C(CSc4nnnn4C)CS[C@H]23)c2ccc(O)cc2)cn1; result = 0.197 z-score
Compound = O=C(CCc1ccncc1)NNC(=O)N1Cc2ccccc2Oc2ccc(Cl)cc21; result = 0.337 z-score
Compound = C[C@@H](CN1CCC(Cc2ccccc2)CC1)[C@@H](O)c1ccc(O)cc1; result = 2.83 z-score
Compound = Cn1nnc2c(C(N)=O)ncn2c1=O; result = 1.86 z-score and 2.03 z-score and 0.0321 z-score
Compound = CCCCCCNC(=O)n1cc(F)c(=O)[nH]c1=O; result = -2.81 z-score
Compound = O=c1[nH]c(=O)n([C@H]2C[C@H](O)[C@@H](CO)O2)cc1C(F)(F)F; result = -0.258 z-score and -1.66 z-score
Compound = Cc1c(OCc2cccc(-c3ccc(C(=O)O)cc3)c2)cc2c(c1C)C(=O)C(C1CCCC1)C2 (centres unmarked); result = 2.8 z-score

Sample 3
SMILES: CC(C)CC(=O)N1CCc2nc(-c3ccc(Br)cc3)nc(N(C)Cc3ccccc3)c2C1
Read-out: cell-free assay
Method: competition with immobilised ligand
Concentration: 0.1 µM
Endpoint: remaining binding
target = Serine/threonine-protein kinase RIO3 (RIOK3, Homo sapiens, UniProt O14730); result = 100%
target = LIM domain kinase 1 (LIMK1, Homo sapiens, UniProt P53667); result = 100%
target = Serine/threonine-protein kinase RIO1 (RIOK1, Homo sapiens, UniProt Q9BRS2); result = 98%
target = Serine/threonine-protein kinase/endoribonuclease IRE1 (ERN1, Homo sapiens, UniProt O75460); result = 100%
target = Ribosomal protein S6 kinase beta-1 (RPS6KB1, Homo sapiens, UniProt P23443); result = 100%
target = Epidermal growth factor receptor (EGFR, Homo sapiens, UniProt P00533, T790M); result = 74%
target = cGMP-dependent protein kinase 1 (PRKG1, Homo sapiens, UniProt Q13976); result = 74%
target = Dual specificity testis-specific protein kinase 1 (TESK1, Homo sapiens, UniProt Q15569); result = 100%
target = Serine/threonine-protein kinase Nek10 (NEK10, Homo sapiens, UniProt Q6ZWH5); result = 100%
target = Epidermal growth factor receptor (EGFR, Homo sapiens, UniProt P00533, L861Q); result = 100%
target = Hepatocyte growth factor receptor (MET, Homo sapiens, UniProt P08581, M1250T); result = 70%
target = Leucine-rich repeat serine/threonine-protein kinase 2 (LRRK2, Homo sapiens, UniProt Q5S007); result = 100%
target = Mitogen-activated protein kinase 4 (MAPK4, Homo sapiens, UniProt P31152); result = 100%
target = Receptor-type tyrosine-protein kinase FLT3, autoinhibited (FLT3, Homo sapiens, UniProt P36888); result = 100%
target = Serine/threonine-protein kinase RIO2 (RIOK2, Homo sapiens, UniProt Q9BVS4); result = 100%
target = Serine/threonine-protein kinase TBK1 (TBK1, Homo sapiens, UniProt Q9UHD2); result = 75%
target = Proto-oncogene tyrosine-protein kinase receptor Ret (RET, Homo sapiens, UniProt P07949, M918T); result = 100%
target = Dual specificity protein kinase TTK (TTK, Homo sapiens, UniProt P33981); result = 100%

Other studies, line by line
SMILES = COc1ccc(-c2c(Nc3ccccn3)[nH]c3c(C4=CCCCC4)c(-c4ccccc4)nn3c2=O)cc1; system = human, plasma; setting = oral, 200 mg twice daily; endpoint = AUC(0-tau); result = 133 µg·h/mL and 124 µg·h/mL

For quick reference, copied from above (sample 3):
target = Hepatocyte growth factor receptor (MET, Homo sapiens, UniProt P08581, M1250T); result = 70%
target = Epidermal growth factor receptor (EGFR, Homo sapiens, UniProt P00533, T790M); result = 74%
target = Serine/threonine-protein kinase Nek10 (NEK10, Homo sapiens, UniProt Q6ZWH5); result = 100%
target = Mitogen-activated protein kinase 4 (MAPK4, Homo sapiens, UniProt P31152); result = 100%
target = Proto-oncogene tyrosine-protein kinase receptor Ret (RET, Homo sapiens, UniProt P07949, M918T); result = 100%
